Results from different studies.
Compare with care: the assays were run in different laboratories. ± gives the spread as reported.

| SMILES | test | test system | conditions | scale | measurement | result |
| --- | --- | --- | --- | --- | --- | --- |
| Cn1c(-c2ccc(C(N)=O)cc2F)nnc1C(C)(C)Oc1c(F)cc(Cl)cc1F |  | human | oral, 3 mg, single ascending dose, incl. administration site |  | general disorder TEAE | 16.7% |
| CCN(CCO)CCCC(C)Nc1ccnc2cc(Cl)ccc12 (centres unmarked) |  | newly diagnosed glioblastoma patients | oral, 800 mg/dose, grade 2, added: radiotherapy and temozolomide |  | fatigue patients | 66% |
| CCc1ccc(CC/C=C/c2ccc3c(c2)C(=O)CC3)cc1 |  | Sprague-Dawley rat, female, serum | oral, 30 mg/kg/day, 14 days |  | potassium | 4.28 mM |
| CN1CCN(S(=O)(=O)c2cc([N+](=O)[O-])ccc2N(CCOS(C)(=O)=O)CCOS(C)(=O)=O)CC1 |  | naive NOD/SCID mice, pooled blood | intraperitoneal, 25 mg/kg, week 4 |  | phosphate | 2.1 mmol/L |
| C[C@]1(CO)Cc2ncn(-c3ccc(C#N)c(Cl)c3)c2C(=O)O1 | investigator-assessed | human | 3 mg multiple doses, fasted |  | subjects with drug-related TEAEs | 22.2% |
| COc1cc2c(Oc3ccc4[nH]c(C)cc4c3F)ccnc2cc1OCC1(N)CC1 |  | paediatric recurrent refractory sarcoma | 8 mg |  | grade 3 Tinnitus | 0% |
| COc1ccc([C@@H](O)c2cc(-c3ncnc4cc(N5CCOCC5)ccc34)c(F)cc2Cl)nn1 |  | patients, advanced solid tumours | oral, 100 mg twice daily, treatment-emergent, added: avelumab | relative to: patients | vascular disorders incidence | 2% |
| Cc1ccc2cc(N3CCC4(O)C(=O)c5cc(C)c(C)cc5N=C34)ccc2n1 (centres unmarked) |  | rat | intravenous, 15 mg/kg, GLP safety pharmacology | relative to: vehicle | respiratory rate increase | 19.6 breaths/min |
| Cn1cc(-c2nc(N[C@@H]3CCCC[C@@H]3N)c(F)c3c2C(=O)NC3)cn1 | refers to: Melaena | patients with relapsed or refractory AML | oral, 80 mg twice daily |  | hemorrhagic adverse events | 17% |
| O=C(Nc1ccccc1)C1CCN(C(=O)Oc2cccnc2)CC1 | psychotropic effects VAS | healthy women | 20 mg | relative to: pre-dose baseline, direction not given | change in Reality score | 0.1 |
| CC[C@H](C)CCCCC(=O)N[C@@H](CCN)C(=O)N[C@H](C(=O)N[C@@H](CCN)C(=O)N[C@H]1CCNC(=O)[C@H]([C@@H](C)O)NC(=O)[C@H](CCN)NC(=O)[C@H](CCN)NC(=O)[C@H](CC(C)C)NC(=O)[C@@H](Cc2ccccc2)NC(=O)[C@H](CCN)NC1=O)[C@@H](C)O |  | critically ill patients, 28-day non-survivors, plasma | dose not given, median |  | AUC(0-24 h) at steady state | 68200 ng·h/mL |
| CCCCCCCCCC(=O)N[C@@H](Cc1c[nH]c2ccccc12)C(=O)N[C@H](CC(N)=O)C(=O)N[C@@H](CC(=O)O)C(=O)N[C@@H]1C(=O)NCC(=O)N[C@@H](CCCN)C(=O)N[C@@H](CC(=O)O)C(=O)N[C@H](C)C(=O)N[C@@H](CC(=O)O)C(=O)NCC(=O)N[C@H](CO)C(=O)N[C@@H]([C@H](C)CC(=O)O)C(=O)N[C@@H](CC(=O)c2ccccc2N)C(=O)O[C@@H]1C | population PK model | human | intravenous, two-compartment model |  | intercompartmental clearance | 0.0428 L/min |
| CCCCCCCCCCCCCCCC(=O)N[C@@H](CCC(=O)NCCCC[C@H](NC(=O)[C@H](CC(=O)O)NC(=O)[C@H](CO)NC(=O)[C@@H](NC(=O)[C@H](Cc1ccccc1)NC(=O)[C@@H](NC(=O)CNC(=O)[C@H](CCC(N)=O)NC(=O)[C@H](CO)NC(=O)[C@@H](N)Cc1c[nH]cn1)[C@@H](C)O)[C@@H](C)O)C(=O)N[C@@H](CO)C(=O)N[C@@H](CCC(=O)O)C(=O)N[C@@H](Cc1ccc(O)cc1)C(=O)N[C@@H](CC(C)C)C(=O)N[C@@H](CC(=O)O)C(=O)N[C@@H](CO)C(=O)N[C@@H](CCC(=O)O)C(=O)N[C@@H](CCCNC(=N)N)C(=O)N[C@@H](C)C(=O)N[C@@H](CCCNC(=N)N)C(=O)N[C@@H](CC(=O)O)C(=O)N[C@@H](Cc1ccccc1)C(=O)N[C@H](C(=O)N[C@@H](C)C(=O)N[C@@H](Cc1c[nH]c2ccccc12)C(=O)N[C@@H](CC(C)C)C(=O)N[C@@H](CCC(=O)O)C(=O)N[C@@H](C)C(=O)NCC(=O)NCC(=O)O)C(C)C)C(=O)O | refers to: Hyperglycaemia | humans CrCl below 20 mL/min | subcutaneous, 100 µg single dose |  | treatment-related adverse events | 0% |
| CC(C)[C@@H]1CC[C@@H](C)C[C@@H]1O | acute oral toxicity OECD | Swiss albino mice, serum | oral, 300 mg/kg |  | alkaline phosphatase | 77 ± 6.69 U/L |
